Measured values from different studies.
Protocols differ between the studies behind these lines.

CN1CC[C@@H](c2c(O)cc(O)c3c(=O)cc(-c4ccc(C(F)(F)F)cc4Cl)oc23)[C@@H]1CO  patients with adverse event (refers to: Neutropenia; B-cell malignancies or AML; oral, 50 mg, continuous dosing): 0%
CC(=O)c1c(C)c2cnc(Nc3ccc(C4CCN(CCS(C)(=O)=O)CC4)cn3)nc2n(C2CCCC2)c1=O  patients with hypertriglyceridemia (HR+/HER2- advanced breast cancer patients; oral, dose not given, grade 3/4,, sample A patients): 2.5%
N[C@@H]1c2ccccc2OC12CCN(c1cnc3c(N4CCCc5ncccc54)n[nH]c3n1)CC2  patients with grade ≥3 TEAE (advanced solid tumour patients; oral, 10 mg once daily): 33.3%
C=CCNc1c(O)cc2c(O)c1C[C@@H](C)C[C@H](OC)[C@H](O)[C@@H](C)/C=C(\C)[C@H](OC(N)=O)[C@@H](OC)/C=C\C=C(/C)C(=O)N2  patients with constipation TEAE (unresectable or metastatic STS, GIST, other; intravenous, 225 mg/m^2): 33%
Nc1nc2cc(-c3ccc4ncc(C(=O)N5CCOCC5)n4c3)ccc2o1  patients with adverse event (refers to: Hypokalemia; advanced solid tumour patients; dose not given): 1%
Cc1cc(OCCOCCC(F)(F)P(=O)(O)O)ccc1CCc1cnc2c(N)nc3cc(CCC(=O)O)ccc3c2c1  patients with non-serious AE (refers to: anemia; adults with advanced solid tumours; dose not given, by treatment group, all grades): 23.8%
O=C1Nc2cc3[nH]nc(-c4ccncc4)c3cc2CN1Cc1ccccc1  patients with back pain (CTCAE v4.03; advanced solid tumour patients; intravenous, 0.9 mg/kg, schedules 1/2): 0%
COc1c(OCCCN2CCOCC2)ccc2c1N=C(NC(=O)c1cnc(N)nc1)N1CCN=C21  patients with adverse event (refers to: decreased lymphocyte count; patients with advanced malignancies; intravenous, dose not given, any grade, all cohorts, with: gemcitabine): 28%
CCN(CCO)CCCC(C)Nc1ccnc2cc(Cl)ccc12 (stereo not shown)  patients with adverse event (refers to: Diarrhea grade 1; newly diagnosed glioblastoma patients; oral, 800 mg/dose, with radiotherapy and temozolomide): 66%
C[C@@H]1OC(=O)NN=C1c1ccc(-c2ccc(F)cc2)c(C(F)(F)F)c1  patients with abdominal distension (patients, phase I trial; oral, dose not given, all arms, worst grade 1): 20%

Some of these lines once more:
COc1c(OCCCN2CCOCC2)ccc2c1N=C(NC(=O)c1cnc(N)nc1)N1CCN=C21  patients with adverse event (refers to: decreased lymphocyte count; patients with advanced malignancies; intravenous, dose not given, any grade, all cohorts, with: gemcitabine): 28%
